Experimental data gathered from unrelated publications.
Numbered parts are unrelated; each lists some results of a single study. Changes are numbered by the printed parent chain.

Set 1
Target: CCND2, cyclin fold, Cln2 fusion (human)
Technique: yeast growth competition, sequencing
Medium: yeast
Notes: weak parent motif
Relative to: not given
Reading: higher = stronger binding
Parent: CENPC docking peptide (human); VKTKKRLNFDDKV; partner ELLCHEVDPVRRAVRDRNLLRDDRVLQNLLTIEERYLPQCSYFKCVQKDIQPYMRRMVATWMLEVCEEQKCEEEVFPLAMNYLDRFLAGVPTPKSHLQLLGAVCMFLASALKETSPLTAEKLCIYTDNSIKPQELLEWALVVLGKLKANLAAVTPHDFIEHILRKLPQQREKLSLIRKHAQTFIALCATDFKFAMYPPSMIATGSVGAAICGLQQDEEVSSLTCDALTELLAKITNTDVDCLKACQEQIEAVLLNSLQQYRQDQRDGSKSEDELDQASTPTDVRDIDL
Change	normalised enrichment score
VKTKKALNFDDKV [R6A]	0.277
VKTKRRLNLDDKV [K5R F9L]	-0.00917
VKTAKRLNFDDKV [K4A]	0.248
VKTKKRLNFDDKA [V13A]	-0.0108
VKTKKRLAFDDKV [N8A]	0.51
VATKKRLNFDDKV [K2A]	0.505
VKTKKRLNFADKV [D10A]	-0.304

Set 2
Target: ABI1, truncated, D143A, DHFR fusion (Arabidopsis thaliana)
Technique: DHFR PCA, deep sequencing
Medium: yeast
Notes: methotrexate growth selection, single substitutions
Added: (+)-ABA 710 µM
Relative to: wild-type fitted maximum
Reading: higher = stronger binding
Parent: PYL1, truncated, DHFR fusion (Arabidopsis thaliana); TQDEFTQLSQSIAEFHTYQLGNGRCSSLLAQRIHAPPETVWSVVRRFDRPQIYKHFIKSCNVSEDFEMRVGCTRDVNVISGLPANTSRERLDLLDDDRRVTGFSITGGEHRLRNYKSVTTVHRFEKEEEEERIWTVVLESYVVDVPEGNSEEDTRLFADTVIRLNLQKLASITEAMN
Change	relative binding score [%]
S26P	40.2
F47W	92.6
T86Q	94.4
E130D	108
E128S	110
E14R	98.4
T160V	88.7
E125Q	111

Set 3
Target: Histone acetyltransferase KAT6A, winged helix 1, GST fusion (KAT6A, Homo sapiens, UniProt Q92794, residues 1-85)
Technique: protein binding microarray
Molecule type: double-stranded DNA, one strand shown
Medium: in vitro
Concentration: not given
Notes: 8-mer, flanks averaged, mean of 2 arrays, mostly near background
Relative to: not given
Reading: higher = stronger binding
Construct (chain): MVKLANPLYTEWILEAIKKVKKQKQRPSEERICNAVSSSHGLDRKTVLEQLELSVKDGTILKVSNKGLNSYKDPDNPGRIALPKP
Oligonucleotide	E-score
ATTACTTG	-0.205
CATGTATC	-0.0425
AGTCAGTC	-0.171
AAATAGTG	-0.147
GTGAAGAA	-0.185
ATTTGTAA	-0.203
AGAGAACG	-0.0346

Mixed results
Molecule	target	assay	test system	conditions	scale	quantity	value
PhoQ, residues 284 288 289 292 302 303 STVVAA	PhoP, residues 12 14 15 18 19 HLGGL (Escherichia coli, UniProt P23836)	Sort-seq, refers to: YFP reporter	E. coli	PhoQ-PhoP variant library, added: 10 µM Mg2+	relative to: high Mg2+ state, higher = stronger signaling	fold induction	1.04

Repeated from above (set 2):
Change	relative binding score [%]
T86Q	94.4
E14R	98.4
F47W	92.6
E130D	108
